# Results pooled from the literature.
# Organism: Escherichia coli
Structure (SMILES),assay,test system,setting,how to read,MIC
CC[C@H](C)[C@H](NC(=O)CNC(=O)[C@H](CC(=O)O)NC(=O)[C@H](CCCNC(=N)N)NC(=O)[C@@H](NC(=O)[C@H](CC(N)=O)NC(=O)[C@H](CCCNC(=N)N)NC(=O)CNC(=O)[C@@H](NC(=O)[C@H](CCCCN)NC(=O)[C@H](CCC(=O)O)NC(=O)[C@@H](NC(=O)[C@H](CCCCN)NC(=O)[C@H](CCCCN)NC(=O)[C@H](Cc1ccccc1)NC(=O)[C@@H](NC(=O)[C@H](CCCCN)NC(=O)[C@H](Cc1c[nH]c2ccccc12)NC(=O)[C@@H](N)CCCNC(=N)N)[C@@H](C)CC)[C@@H](C)CC)C(C)C)C(C)C)C(=O)N[C@H](C(=O)N[C@@H](CCCCN)C(=O)N[C@@H](C)C(=O)NCC(=O)N1CCC[C@H]1C(=O)N[C@@H](C)C(=O)N[C@H](C(=O)N[C@@H](C)C(=O)N[C@@H](C)C(=O)N[C@@H](C)C(=O)NCC(=O)N[C@@H](CCC(N)=O)C(=O)N[C@@H](C)C(=O)N[C@@H](C)C(=O)N[C@H](C(=O)N[C@H](C(=O)N[C@H](C(=O)N[C@@H](CCCCN)C(N)=O)C(C)C)C(C)C)[C@@H](C)O)C(C)C)[C@@H](C)CC,,"KCTC 1682, Mueller-Hinton broth","16 h, 37 °C",growth inhibition over 99%,2 µM
CC[C@H](C)[C@H](NC(=O)[C@H](CC(C)C)NC(=O)[C@H](CCCCN)NC(=O)[C@@H](NC(=O)[C@H](C)NC(=O)[C@H](CCC(=O)O)NC(=O)[C@H](Cc1c[nH]cn1)NC(=O)[C@@H](NC(=O)[C@H](CCCCN)NC(=O)[C@H](CCC(N)=O)NC(=O)[C@H](Cc1ccccc1)NC(=O)[C@@H](NC(=O)[C@H](CCCCN)NC(=O)[C@H](CCCCN)NC(=O)[C@H](CC(C)C)NC(=O)[C@H](C)N)C(C)C)[C@@H](C)CC)[C@@H](C)CC)C(N)=O,broth microdilution,CCARM 1238 resistant,"18 h, 37 °C",,4 µM
CC[C@H](C)[C@H](NC(=O)CNC(=O)[C@H](CC(=O)O)NC(=O)[C@H](CCCNC(=N)N)NC(=O)[C@@H](NC(=O)[C@H](CC(N)=O)NC(=O)[C@H](CCCNC(=N)N)NC(=O)CNC(=O)[C@@H](NC(=O)[C@H](CCCCN)NC(=O)[C@H](CCC(=O)O)NC(=O)[C@@H](NC(=O)[C@H](CCCCN)NC(=O)[C@H](CCCCN)NC(=O)[C@H](C)NC(=O)[C@@H](NC(=O)[C@H](CCCCN)NC(=O)[C@H](C)NC(=O)[C@@H](N)CCCNC(=N)N)[C@@H](C)CC)[C@@H](C)CC)C(C)C)C(C)C)C(=O)N[C@H](C(=O)N[C@@H](CCCCN)C(=O)N[C@@H](C)C(=O)NCC(=O)N1CCC[C@H]1C(=O)N[C@@H](C)C(=O)N[C@H](C(=O)N[C@@H](C)C(=O)N[C@H](C(=O)N[C@H](C(=O)NCC(=O)N[C@@H](CCC(N)=O)C(=O)N[C@@H](C)C(=O)N[C@@H](C)C(=O)N[C@H](C(=O)N[C@H](C(=O)N[C@H](C(=O)N[C@@H](CCCCN)C(N)=O)C(C)C)C(C)C)[C@@H](C)O)C(C)C)C(C)C)C(C)C)[C@@H](C)CC,,"KCTC 1682, Mueller-Hinton broth","16 h, 37 °C",growth inhibition over 99%,4 µM
CC[C@H](C)[C@H](NC(=O)[C@H](CCCCN)NC(=O)[C@H](CCCCN)NC(=O)CNC(=O)[C@H](CCCCN)NC(=O)[C@H](CC(C)C)NC(=O)[C@H](CCCCN)NC(=O)[C@H](CCCNC(=N)N)NC(=O)[C@@H](NC(=O)[C@H](CC(C)C)NC(=O)[C@H](CCCNC(=N)N)NC(=O)[C@@H](N)CCCNC(=N)N)[C@@H](C)CC)C(=O)N[C@@H](Cc1ccc(O)cc1)C(=O)N[C@@H](CC(C)C)C(=O)N[C@@H](Cc1ccc(O)cc1)C(=O)N[C@@H](Cc1ccccc1)C(=O)N[C@@H](CCCCN)C(=O)N[C@@H](CC(C)C)C(=O)N[C@@H](CCC(N)=O)C(=O)N[C@@H](CC(C)C)C(=O)N[C@@H](CC(C)C)C(=O)N[C@@H](CCCCN)C(=O)N[C@@H](CCCCN)C(N)=O,broth microdilution,"KCTC 1682, Mueller-Hinton broth",added: FeCl3 4 µM,,16 µM
CC[C@@H](C)[C@@H](N)C(=O)N[C@@H](C(=O)N[C@H](Cc1ccc(O)cc1)C(=O)N[C@@H](C(=O)N[C@H](CCCNC(=N)N)C(=O)N[C@H](CC(C)C)C(=O)N[C@H](CO)C(=O)N[C@H](CCCNC(=N)N)C(=O)N[C@@H](C(=O)N[C@H](CCCNC(=N)N)C(=O)N[C@H](Cc1c[nH]cn1)C(=O)N[C@H](CCCNC(=N)N)C(=O)N[C@H](C)C(=O)N[C@H](CCCNC(=N)N)C(=O)N[C@H](CCCNC(=N)N)C(N)=O)[C@H](C)CC)[C@H](C)CC)[C@H](C)CC,,"ATCC 25922, Mueller-Hinton broth","20 h, 37 °C",,8 µg/mL
CCCCCCC/C=C/C(=O)N1C(=O)/C(=C(/C)O)C(=O)C1Cc1ccc(O)cc1 (centres unmarked),,K12 ΔtolC,,,50 µg/mL
CC[C@H](C)[C@H](NC(=O)CN)C(=O)N[C@@H](C)C(=O)N[C@@H](CC(=O)O)C(=O)N[C@@H](C)C(=O)N[C@H](C(=O)N[C@@H](CCCCN)C(=O)N[C@@H](C)C(=O)N[C@H](C(=O)N[C@@H](C)C(=O)N[C@@H](CCCCN)C(=O)N[C@@H](C)C(=O)N[C@@H](CC(C)C)C(=O)NCC(N)=O)[C@@H](C)CC)[C@@H](C)CC,,"ATCC 25922, Mueller-Hinton broth","12 h, 37 °C",,128 µg/mL
COc1c(N2C[C@@H]3CCCN[C@@H]3C2)c(F)cc2c(=O)c(C(=O)O)cn(C3CC3)c12,,"NR 51487, fluoroquinolone-resistant",,,73 µM

# Repeated from above:
Structure (SMILES),assay,test system,setting,how to read,MIC
CC[C@H](C)[C@H](NC(=O)[C@H](CC(C)C)NC(=O)[C@H](CCCCN)NC(=O)[C@@H](NC(=O)[C@H](C)NC(=O)[C@H](CCC(=O)O)NC(=O)[C@H](Cc1c[nH]cn1)NC(=O)[C@@H](NC(=O)[C@H](CCCCN)NC(=O)[C@H](CCC(N)=O)NC(=O)[C@H](Cc1ccccc1)NC(=O)[C@@H](NC(=O)[C@H](CCCCN)NC(=O)[C@H](CCCCN)NC(=O)[C@H](CC(C)C)NC(=O)[C@H](C)N)C(C)C)[C@@H](C)CC)[C@@H](C)CC)C(N)=O,broth microdilution,CCARM 1238 resistant,"18 h, 37 °C",,4 µM
